Measurements collected from several papers.
Each line is one published result; not all experiments were run side by side. Numbers after ± are the reported error.

CC(C)C(=O)O[C@H]1CC[C@]2(C)[C@H]3CC[C@@H]4C5=CC(C)(C)CC[C@]5(C(=O)O)CC[C@@]4(C)[C@]3(C)CC[C@H]2C1(C)C
EC50 (HIV-1 IIIB; viral replication, measured: p24 antigen; MT-2; day 4): > 10 µM

COc1cc(NC(C)CCCN)c2ncccc2c1 (stereo not shown)
EC50 (HIV-2; cytopathic effect; MT4, ROD; 5 days): > 100 µM

CCCC#Cc1cn([C@@H]2O[C@H](CO)[C@@H](O)[C@H]2O)c2ncnc(C)c12
EC50 (Leishmania infantum; parasite growth, imaging; mouse Macrophage; 5 days, intracellular, amastigote): > 64 µM

Nc1ncnc2c1ncn2CCOCP(=O)(O)O
EC50 (HIV-2; giant cell formation; CEM, ROD; 96 h): 7 ± 1.1 µM

CCCn1/c(=N/C(=O)c2cccc(C(N)=O)c2)[nH]c2ccccc21
EC50 (Plasmodium berghei; liver stage parasite load, inhibitor, luciferase; HepG2; compound added 0 h post infection): 11 µM

CCc1nn(C)c2nc(-c3ccc(C(=O)O)cc3)nc(NCc3ccc(F)cc3)c12
EC50 (Cryptosporidium parvum; parasite growth, immunofluorescence microscopy; HCT-8, Iowa; 48 h post infection, compound added at 3 h): 1.8 µM

CCc1cn([C@@H]2O[C@H](CO)[C@@H](O)[C@H]2O)c2ncnc(C)c12
EC50 (Leishmania infantum; parasite growth, imaging; mouse Macrophage; 5 days, intracellular, amastigote): 1.79 µM

CC1(C)C=C2[C@H]3CC[C@@H]4[C@@]5(C)CC[C@H](OC(=O)C(C)(C)C)C(C)(C)[C@@H]5CC[C@@]4(C)[C@]3(C)CC[C@@]2(C(=O)O)CC1
EC50 (HIV-1 IIIB; viral replication, measured: p24 antigen; MT-2; day 4): > 10 µM

Cc1ncnc2c1c(-c1ccccc1)cn2[C@@H]1O[C@H](CO)[C@@H](O)[C@H]1O
EC50 (Leishmania infantum; parasite growth, imaging; mouse Macrophage; 5 days, intracellular, amastigote): > 64 µM

N=C(N)N
EC50 (Enterovirus D68; cytopathic effect, neutral red uptake; A549, US/KY/14-18953): 32 ± 4.8 µM

COc1ccc(NC(=O)N2CCCCN3[C@H](CO)[C@H](c4ccc(C#Cc5ccccc5)cc4)[C@@H]3C2)cc1
EC50 (Plasmodium cynomolgi; liver-stage large forms (schizonts); primary rhesus hepatocytes, M strain): 2.86 µM

Cc1ncnc2c1c(/C=C/c1ccccc1)cn2[C@@H]1O[C@H](CO)[C@@H](O)[C@H]1O
EC50 (Leishmania infantum; parasite growth, imaging; mouse Macrophage; 5 days, intracellular, amastigote): 3.27 µM

CCCC(=O)O[C@H]1CC[C@]2(C)[C@H]3CC[C@@H]4C5=CC(C)(C)CC[C@]5(C(=O)O)CC[C@@]4(C)[C@]3(C)CC[C@H]2C1(C)C
EC50 (HIV-1 IIIB; viral replication, measured: p24 antigen; MT-2; day 4): > 10 µM

CC(=O)OC[C@H]1O[C@@H]([S-])[C@H](OC(C)=O)[C@@H](OC(C)=O)[C@@H]1OC(C)=O.CCP(CC)CC.[Au+]
EC50 (Leishmania amazonensis; alamarBlue; axenic amastigotes; 72 h): 0.13 ± 0.0025 µM

CC(C)CC(=O)O[C@H]1CC[C@]2(C)[C@H]3CC[C@@H]4C5=CC(C)(C)CC[C@]5(C(=O)O)CC[C@@]4(C)[C@]3(C)CC[C@H]2C1(C)C
EC50 (HIV-1 IIIB; viral replication, measured: p24 antigen; MT-2; day 4): > 10 µM

Cc1nc(CN)cc2c1[nH]c1ccccc12
EC50 (HIV-2; cytopathic effect; MT4, ROD; 5 days): > 100 µM

CCCCCCc1cn([C@@H]2O[C@H](CO)[C@@H](O)[C@H]2O)c2ncnc(C)c12
EC50 (Leishmania infantum; parasite growth, imaging; mouse Macrophage; 5 days, intracellular, amastigote): > 64 µM

COc1ccc(NC(=O)N2CCCCN3[C@H](CN(C)C)[C@H](c4ccc(C#Cc5ccccc5)cc4)[C@@H]3C2)cc1
EC50 (Plasmodium cynomolgi; liver-stage large forms (schizonts); primary rhesus hepatocytes, M strain): 1.04 µM

CCc1cn([C@@H]2O[C@H](CO)[C@@H](O)[C@H]2O)c2ncnc(CC)c12
EC50 (Leishmania infantum; parasite growth, imaging; mouse Macrophage; 5 days, intracellular, amastigote): > 64 µM

COc1cc(NC(C)CCCNC(=O)c2cc(Br)ccc2N)c2ncccc2c1 (stereo not shown)
EC50 (HIV-2; cytopathic effect; MT4, ROD; 5 days): > 100 µM

O=[N+]([O-])c1cn2c(n1)O[C@@H](COc1ccc(-c3ccc(F)cc3)nc1)CC2
EC50 (Leishmania amazonensis; parasite growth; mouse Peritoneal macrophage; 72 h, intracellular, amastigote): < 1.11 µM

O=C(NCCN1CCCC1)c1cc(-c2cccs2)nc2ccccc12
EC50 (Enterovirus D68; cytopathic effect; RD, US/KY/14-18953; bound over five strains): < 1 µM
